Experimental data from different studies.
Every numbered part comes from another study and shows a few of its results, in no order. Substitutions count along the parent as printed.

Set 1
Target: CEP164, C-terminal peptide (human)
Technique: DHFR complementation, deep sequencing
Medium: yeast
Setting: single substitutions, model-inferred values
Reference: wild type
Direction: higher = weaker binding
Starting sequence: PDZK1, PDZ domain 2 (human); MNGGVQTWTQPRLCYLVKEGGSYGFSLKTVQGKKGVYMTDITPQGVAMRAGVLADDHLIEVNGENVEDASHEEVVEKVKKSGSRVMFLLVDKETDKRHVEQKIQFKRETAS; partner HNRVKVYRF
For `D40Y`, “binding free energy change” read 1.75 kJ/mol.
Under “binding free energy change”, `V52D` is recorded as 5.49 kJ/mol.
For `R107L`, “binding free energy change” read -0.269 kJ/mol.
For `K106L`, “binding free energy change” read -0.174 kJ/mol.
Under “binding free energy change”, `M1R` is recorded as -0.606 kJ/mol.
Under “binding free energy change”, `G32M` is recorded as 2.94 kJ/mol.
Under “binding free energy change”, `V85S` is recorded as 6.98 kJ/mol.
`V99K`: “binding free energy change” -0.998 kJ/mol.
Under “binding free energy change”, `P43M` is recorded as 2.25 kJ/mol.
Under “binding free energy change”, `F105G` is recorded as -1.05 kJ/mol.
Under “binding free energy change”, `V99T` is recorded as -0.748 kJ/mol.
`M1Y`: “binding free energy change” 0.107 kJ/mol.
For `F105N`, “binding free energy change” read -0.678 kJ/mol.
`V85P` — result for “binding free energy change”: 4.45 kJ/mol.
`G51Q`: “binding free energy change” 3.81 kJ/mol.
Under “binding free energy change”, `K80P` is recorded as 7.09 kJ/mol.
`R49H`: “binding free energy change” 2.08 kJ/mol.
`Q104G` — result for “binding free energy change”: -0.59 kJ/mol.
For `T39H`, “binding free energy change” read -0.509 kJ/mol.
Under “binding free energy change”, `S70I` is recorded as 0.623 kJ/mol.
`H57D` — result for “binding free energy change”: 3.89 kJ/mol.
For `V99Y`, “binding free energy change” read -0.48 kJ/mol.
`H71N`: “binding free energy change” -0.0961 kJ/mol.
`G51P`: “binding free energy change” 7.65 kJ/mol.
`E100F` — result for “binding free energy change”: -0.528 kJ/mol.

Set 2
Target: Interferon regulatory factor 5, full length, phosphomimetic (IRF5, Homo sapiens, UniProt Q13568-2, residues 1-514, S451D/S453D/S456D/S462D)
Technique: protein-binding microarray
Form: double-stranded DNA, one strand shown
Medium: in vitro
Concentration: 940 nM top
Setting: 60-bp whole probe
With: salmon DNA 0.4 mg/ml
Reference: random background probes
Direction: higher = stronger binding
All sequences stand within: GCCTAGCAC … GTCTTGATTCGCTTGACGCTGCTG
`GCTTCCTCCTACCCGACCCCGTGCTAG`: “fitted relative affinity” 0.809 z-score.
`GACGATATCGGGTATCGAGCCGTGCTA` — result for “fitted relative affinity”: 0.619 z-score.
For `GGGTTTTTTAGGCAGACAGCGTGCTAG`, “fitted relative affinity” read 0.181 z-score.
For `CTCAGGTAATATTTCCTGCTGTGCTAG`, “fitted relative affinity” read -0.00401 z-score.
For `TTAGGTTTCGGGTTTCGTTTAGTGCTA`, “fitted relative affinity” read 10.5 z-score.
`CAATACCTTATGAATGTGTTGTGCTAG`: “fitted relative affinity” 0.19 z-score.
Under “fitted relative affinity”, `TTAGGTATCCTTATCCCTTAGTGCTAG` is recorded as 0.335 z-score.
Under “fitted relative affinity”, `ATAGATATCGGGTTTCGATTAGTGCTA` is recorded as 5.05 z-score.
For `TTAGGTATCGGACTGGGTTCGTGCTAG`, “fitted relative affinity” read 3.66 z-score.
Under “fitted relative affinity”, `GACGGACTGGGTATCGGAACGTGCTAG` is recorded as 1.14 z-score.
`TTAGGACTGGACTTTCGGATAGTGCTA` — result for “fitted relative affinity”: 0.491 z-score.
`TTAGGTATCCATCTCCTTTAGTGCTAG` — result for “fitted relative affinity”: 0.771 z-score.
`TTAGACCTGGGGTATCGATTAGTGCTA` — result for “fitted relative affinity”: 2.8 z-score.
`ATAGGTCTCCTTCTCCTTTAGTGCTAG`: “fitted relative affinity” 0.301 z-score.
`TTAGAACTGAGTCTCGATAAGTGCTAG`: “fitted relative affinity” 2.28 z-score.
Under “fitted relative affinity”, `TCATATATGCATGTAAAACTGTGCTAG` is recorded as -0.0971 z-score.
`GACGAACTGAGTATGGAGACGTGCTAG` — result for “fitted relative affinity”: -0.541 z-score.
Under “fitted relative affinity”, `TTGGGTTTCGGTCTCGGTTAGTGCTAG` is recorded as 13.5 z-score.
`GACGGTTTCCTTTCCCTGAAGTGCTAG`: “fitted relative affinity” 1.57 z-score.

Set 3
Target: Ras GTPase-activating protein-binding protein 1, C-terminal RGG region (G3BP1, Homo sapiens, UniProt Q13283)
Sequence of UniProt Q13283 (whole entry, looked up): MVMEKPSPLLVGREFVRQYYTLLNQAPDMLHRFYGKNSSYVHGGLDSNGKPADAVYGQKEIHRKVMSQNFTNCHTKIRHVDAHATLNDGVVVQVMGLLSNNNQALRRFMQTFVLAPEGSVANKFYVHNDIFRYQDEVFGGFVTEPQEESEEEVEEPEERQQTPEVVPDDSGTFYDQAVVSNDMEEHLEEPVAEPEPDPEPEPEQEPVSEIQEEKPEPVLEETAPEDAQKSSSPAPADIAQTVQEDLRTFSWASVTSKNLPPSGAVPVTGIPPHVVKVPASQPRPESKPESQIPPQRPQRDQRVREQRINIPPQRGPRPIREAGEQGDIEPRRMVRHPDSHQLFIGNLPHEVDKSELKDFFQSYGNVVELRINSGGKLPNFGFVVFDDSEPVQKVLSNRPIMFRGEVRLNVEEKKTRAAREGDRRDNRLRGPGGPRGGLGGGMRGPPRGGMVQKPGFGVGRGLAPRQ
Technique: RNA Bind-n-Seq
Form: RNA
Medium: in vitro
Concentration: 1 µM
Setting: whole 134-nt RNA, ends assumed
With: 150 mM KCl
Reference: input library
Direction: higher = stronger binding
For `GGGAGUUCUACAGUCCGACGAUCCUCAAGUCCUGUGCUACACAUCGUAUGUACCGAAUCGGGGUGGUGGGGUGGGGAAAGUAUUAUGUUACGCCGUUCGGAUCUGCACUUCCAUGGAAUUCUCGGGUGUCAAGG`, the log2 enrichment was 0.256.
For `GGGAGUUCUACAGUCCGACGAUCUGCCAUGGACAAUAUUACCAGGCAGAACCAAUUCUACGAUACCCAAGUCAUCAAACAAGAAAACGAGUCAGGCUACGAGAGGAGACCACUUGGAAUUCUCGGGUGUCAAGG`, the log2 enrichment was -0.964.
The log2 enrichment of `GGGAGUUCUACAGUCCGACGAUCUAACUUUAGAGGAGGAUCUGAUGGAUAUGGCAGUGGACGUGGAUUUGGGGAUGGCUAUAAUGGGUAUGUAGGAGGACCUGGAGGUGGCAAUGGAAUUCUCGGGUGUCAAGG` is reported as -0.759.
The log2 enrichment of `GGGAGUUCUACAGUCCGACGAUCCACAGACAACACGCACCCACACAGACACAGAGGGAAGGGGUUGGGAUGGGGACAAAGUGCACAGCAGGGCGGGGUAGGACCCCAGCCCCUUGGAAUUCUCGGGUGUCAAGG` is reported as -0.436.
The log2 enrichment of `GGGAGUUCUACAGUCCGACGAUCUGUGUGACUUCCUUGGAGAGAAGAUUGCAUCUGUUUUGGGUAUCAGCACCCCAAAGUACCAAUAUGCCAUUGAUGAAUAUUAUCGGAUGAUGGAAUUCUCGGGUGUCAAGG` is reported as -0.717.
For `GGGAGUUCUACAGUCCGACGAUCGUCCUGUGCUACACAUCGUAUGUACCGAAUCAAACCCCCCCAAACCCCCAAACCCAAAAAAGUAUUAUGUUACGCCGUUCGGAUCUGCACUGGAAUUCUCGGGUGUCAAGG`, the log2 enrichment was -0.827.
The log2 enrichment of `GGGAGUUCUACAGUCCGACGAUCUAACUUUAGAGGAGGAUCUGAUGGAUAUGGCAGUGGACGUGGAUUUGGGGAUGGCUAUAAUGGGUAUGGAGGAGGACGUGGAGGUGGCAAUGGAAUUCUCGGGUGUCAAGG` is reported as -0.648.
`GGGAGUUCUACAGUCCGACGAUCAGUCCUGUGCUACACAUCGUAUGUACCGAAUCGGGCCCCGGGGCCCCGGGGCCCCGGGAAAGUAUUAUGUUACGCCGUUCGGAUCUGCACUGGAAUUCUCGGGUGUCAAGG` gave a log2 enrichment of -0.318.
`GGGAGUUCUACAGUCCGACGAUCUCCUGUGCUACACAUCGUAUGUACCGAAUCGGGCCCCCGGGGCCCCCGGGGCCCCCGGGAAAGUAUUAUGUUACGCCGUUCGGAUCUGCAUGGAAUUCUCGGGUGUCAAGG` gave a log2 enrichment of -1.79.

Set 4
Target: Histone acetyltransferase KAT6A, both winged helices, GST fusion (KAT6A, Homo sapiens, UniProt Q92794, residues 1-181)
Technique: protein binding microarray
Form: double-stranded DNA, one strand shown
Medium: in vitro
Concentration: not given
Setting: 8-mer, flanks averaged, mean of 2 arrays, mostly near background
Reference: not given
Direction: higher = stronger binding
Residues (chain): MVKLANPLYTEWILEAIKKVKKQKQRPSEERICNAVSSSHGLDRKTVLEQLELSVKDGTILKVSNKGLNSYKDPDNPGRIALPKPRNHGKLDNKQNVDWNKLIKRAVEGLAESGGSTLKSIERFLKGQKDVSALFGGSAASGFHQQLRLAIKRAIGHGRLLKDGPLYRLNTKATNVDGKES
The E-score of `AGTGTCTG` is reported as -0.304.
For `ACGGGCTG`, the E-score was 0.0837.
`ATCACGCC` gave an E-score of 0.113.
The E-score of `TACAAACA` is reported as -0.0387.
The E-score of `TCCACGGA` is reported as 0.237.
The E-score of `ATACCCGC` is reported as 0.29.
The E-score of `AACCACAG` is reported as -0.193.
`ATAAACCC` has an E-score of -0.0279.
The E-score of `TATTGAAA` is reported as -0.0878.
`CATGTGAA` gave an E-score of -0.0315.
`CGTCTTAA` gave an E-score of 0.0407.
The E-score of `AGAGCGAA` is reported as -0.0849.
The E-score of `AAAATCGC` is reported as 0.049.
For `CCATGAAA`, the E-score was -0.145.
With `TACACGCA` the E-score was 0.0867.
`CTGATAGC` gave an E-score of 0.00235.
`AGATAGGA` gave an E-score of -0.232.
`ATCCTATG` gave an E-score of -0.19.
`ATGACATG` has an E-score of 0.0444.
With `GATAGCAC` the E-score was 0.0535.
The E-score of `CCCAGGGA` is reported as -0.121.
For `CAACGTGG`, the E-score was 3.5e-05.
`AGTTGGAC` gave an E-score of -0.11.
